{"data": "Assay results pooled from the literature", "RIPK1": "Receptor-interacting serine/threonine-protein kinase 1 (RIPK1, Homo sapiens, UniProt Q13546)", "note": "Lines come from different studies, so protocols differ.", "sequence of UniProt Q13546 (whole entry, looked up)": "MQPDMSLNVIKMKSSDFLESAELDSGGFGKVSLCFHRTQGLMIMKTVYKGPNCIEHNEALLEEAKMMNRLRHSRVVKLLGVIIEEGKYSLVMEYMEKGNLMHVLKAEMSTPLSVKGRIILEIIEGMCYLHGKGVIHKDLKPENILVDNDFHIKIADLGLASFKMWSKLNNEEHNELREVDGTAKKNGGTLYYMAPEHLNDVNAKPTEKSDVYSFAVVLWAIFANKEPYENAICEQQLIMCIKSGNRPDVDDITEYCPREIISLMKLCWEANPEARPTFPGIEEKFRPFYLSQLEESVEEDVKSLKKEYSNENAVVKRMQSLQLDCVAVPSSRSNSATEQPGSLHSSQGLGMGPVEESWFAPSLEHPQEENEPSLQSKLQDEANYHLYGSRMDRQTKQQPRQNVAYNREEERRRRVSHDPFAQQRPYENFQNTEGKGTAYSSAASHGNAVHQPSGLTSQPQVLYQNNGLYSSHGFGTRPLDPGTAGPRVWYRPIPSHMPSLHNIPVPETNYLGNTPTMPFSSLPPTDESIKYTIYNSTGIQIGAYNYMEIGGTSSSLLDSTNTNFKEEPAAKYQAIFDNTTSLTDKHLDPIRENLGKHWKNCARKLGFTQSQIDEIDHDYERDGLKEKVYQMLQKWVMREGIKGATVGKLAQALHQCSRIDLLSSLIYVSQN", "sequence of UniProt Q9UBS0 (whole entry, looked up)": "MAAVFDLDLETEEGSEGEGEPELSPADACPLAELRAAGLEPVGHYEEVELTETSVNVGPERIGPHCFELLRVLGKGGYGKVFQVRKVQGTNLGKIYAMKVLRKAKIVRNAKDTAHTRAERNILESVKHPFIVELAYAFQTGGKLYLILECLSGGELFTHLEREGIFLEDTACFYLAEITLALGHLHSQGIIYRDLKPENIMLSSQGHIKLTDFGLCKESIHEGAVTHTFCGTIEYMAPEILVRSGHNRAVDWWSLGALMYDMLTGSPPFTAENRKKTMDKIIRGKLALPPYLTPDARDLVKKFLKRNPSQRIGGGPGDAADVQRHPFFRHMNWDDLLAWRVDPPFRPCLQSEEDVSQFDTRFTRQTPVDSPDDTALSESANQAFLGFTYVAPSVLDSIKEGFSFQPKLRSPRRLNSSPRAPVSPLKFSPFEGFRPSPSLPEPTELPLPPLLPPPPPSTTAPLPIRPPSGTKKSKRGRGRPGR", "sequence of UniProt P20309 (whole entry, looked up)": "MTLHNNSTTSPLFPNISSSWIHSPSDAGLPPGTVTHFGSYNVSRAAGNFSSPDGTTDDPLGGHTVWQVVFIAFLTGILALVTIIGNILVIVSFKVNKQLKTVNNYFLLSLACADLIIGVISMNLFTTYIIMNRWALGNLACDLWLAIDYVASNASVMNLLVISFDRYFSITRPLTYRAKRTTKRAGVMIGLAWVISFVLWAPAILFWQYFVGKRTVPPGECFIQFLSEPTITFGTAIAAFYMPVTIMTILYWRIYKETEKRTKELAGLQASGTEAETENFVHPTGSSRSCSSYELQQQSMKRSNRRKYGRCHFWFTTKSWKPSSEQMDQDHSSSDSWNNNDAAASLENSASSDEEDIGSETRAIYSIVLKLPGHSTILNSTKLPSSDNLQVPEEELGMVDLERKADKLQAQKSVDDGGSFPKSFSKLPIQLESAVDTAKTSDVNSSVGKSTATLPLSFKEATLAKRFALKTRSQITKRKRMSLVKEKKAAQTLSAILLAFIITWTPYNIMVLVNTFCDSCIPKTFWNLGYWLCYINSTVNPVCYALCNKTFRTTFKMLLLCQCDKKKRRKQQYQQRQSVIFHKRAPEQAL", "sequence of UniProt P18031 (whole entry, looked up)": "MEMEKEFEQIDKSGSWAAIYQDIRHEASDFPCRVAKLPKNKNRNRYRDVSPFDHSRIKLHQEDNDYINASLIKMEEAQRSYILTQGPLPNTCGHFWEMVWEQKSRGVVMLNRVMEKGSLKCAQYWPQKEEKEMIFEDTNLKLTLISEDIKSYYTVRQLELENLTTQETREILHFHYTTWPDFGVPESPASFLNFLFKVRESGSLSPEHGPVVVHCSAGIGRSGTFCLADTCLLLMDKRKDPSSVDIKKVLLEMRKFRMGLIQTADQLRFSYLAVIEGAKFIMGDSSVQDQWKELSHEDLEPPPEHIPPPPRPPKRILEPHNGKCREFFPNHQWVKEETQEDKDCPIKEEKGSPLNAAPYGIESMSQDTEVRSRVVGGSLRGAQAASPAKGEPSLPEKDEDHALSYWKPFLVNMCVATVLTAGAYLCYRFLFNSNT", "sequence of UniProt P48736 (whole entry, looked up)": "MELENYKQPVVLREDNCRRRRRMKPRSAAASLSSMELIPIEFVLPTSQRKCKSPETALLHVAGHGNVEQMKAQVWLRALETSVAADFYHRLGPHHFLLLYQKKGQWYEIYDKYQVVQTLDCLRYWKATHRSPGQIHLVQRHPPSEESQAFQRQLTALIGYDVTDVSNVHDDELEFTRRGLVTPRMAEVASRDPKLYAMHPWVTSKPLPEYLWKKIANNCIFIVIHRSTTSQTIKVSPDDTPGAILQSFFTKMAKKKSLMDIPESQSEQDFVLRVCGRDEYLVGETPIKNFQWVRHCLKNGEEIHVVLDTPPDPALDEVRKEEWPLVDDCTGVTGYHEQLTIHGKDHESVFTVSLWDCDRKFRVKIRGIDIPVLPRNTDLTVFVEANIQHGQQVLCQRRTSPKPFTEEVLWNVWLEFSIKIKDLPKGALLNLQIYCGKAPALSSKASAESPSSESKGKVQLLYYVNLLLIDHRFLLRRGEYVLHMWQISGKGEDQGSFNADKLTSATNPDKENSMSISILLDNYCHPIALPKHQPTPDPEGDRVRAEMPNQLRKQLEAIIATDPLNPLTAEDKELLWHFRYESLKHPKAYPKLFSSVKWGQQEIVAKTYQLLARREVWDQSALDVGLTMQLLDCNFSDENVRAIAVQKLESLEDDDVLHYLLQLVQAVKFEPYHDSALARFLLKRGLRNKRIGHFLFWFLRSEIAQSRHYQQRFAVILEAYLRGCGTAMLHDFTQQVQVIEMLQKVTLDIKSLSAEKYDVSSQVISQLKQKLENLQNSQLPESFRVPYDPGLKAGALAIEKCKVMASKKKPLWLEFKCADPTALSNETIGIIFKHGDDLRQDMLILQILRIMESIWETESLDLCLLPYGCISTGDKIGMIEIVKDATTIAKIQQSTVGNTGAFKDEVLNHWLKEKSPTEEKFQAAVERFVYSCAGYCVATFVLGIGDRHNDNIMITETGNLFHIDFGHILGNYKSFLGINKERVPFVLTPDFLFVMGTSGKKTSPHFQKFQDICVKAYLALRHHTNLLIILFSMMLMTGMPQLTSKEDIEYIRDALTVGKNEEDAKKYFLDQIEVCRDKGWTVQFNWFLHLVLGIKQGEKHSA", "sequence of UniProt P21462 (whole entry, looked up)": "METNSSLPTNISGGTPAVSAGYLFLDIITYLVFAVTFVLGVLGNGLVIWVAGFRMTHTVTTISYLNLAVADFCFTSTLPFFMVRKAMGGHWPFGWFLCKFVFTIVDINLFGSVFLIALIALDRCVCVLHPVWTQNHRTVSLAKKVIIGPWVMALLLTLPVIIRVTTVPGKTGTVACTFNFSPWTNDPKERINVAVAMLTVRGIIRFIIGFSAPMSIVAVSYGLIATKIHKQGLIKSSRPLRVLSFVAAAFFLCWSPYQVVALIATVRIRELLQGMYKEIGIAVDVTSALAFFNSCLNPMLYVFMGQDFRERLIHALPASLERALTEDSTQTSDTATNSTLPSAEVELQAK", "sequence of UniProt P17812 (whole entry, looked up)": "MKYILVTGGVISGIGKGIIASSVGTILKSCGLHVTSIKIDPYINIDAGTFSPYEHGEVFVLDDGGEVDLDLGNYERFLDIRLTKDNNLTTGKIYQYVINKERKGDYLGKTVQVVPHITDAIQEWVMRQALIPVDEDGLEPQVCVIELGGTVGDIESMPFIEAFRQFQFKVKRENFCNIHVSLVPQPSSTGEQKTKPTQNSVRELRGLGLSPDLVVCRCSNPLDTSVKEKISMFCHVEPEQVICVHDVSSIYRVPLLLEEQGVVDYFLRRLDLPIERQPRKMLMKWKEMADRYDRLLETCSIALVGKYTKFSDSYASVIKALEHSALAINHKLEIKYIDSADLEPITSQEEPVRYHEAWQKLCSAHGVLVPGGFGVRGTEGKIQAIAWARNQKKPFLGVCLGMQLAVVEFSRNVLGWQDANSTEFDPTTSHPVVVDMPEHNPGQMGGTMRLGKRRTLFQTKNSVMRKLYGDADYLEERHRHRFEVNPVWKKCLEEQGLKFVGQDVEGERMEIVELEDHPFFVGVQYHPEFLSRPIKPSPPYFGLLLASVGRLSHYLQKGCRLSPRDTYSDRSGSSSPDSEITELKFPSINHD", "sequence of UniProt Q92731 (whole entry, looked up)": "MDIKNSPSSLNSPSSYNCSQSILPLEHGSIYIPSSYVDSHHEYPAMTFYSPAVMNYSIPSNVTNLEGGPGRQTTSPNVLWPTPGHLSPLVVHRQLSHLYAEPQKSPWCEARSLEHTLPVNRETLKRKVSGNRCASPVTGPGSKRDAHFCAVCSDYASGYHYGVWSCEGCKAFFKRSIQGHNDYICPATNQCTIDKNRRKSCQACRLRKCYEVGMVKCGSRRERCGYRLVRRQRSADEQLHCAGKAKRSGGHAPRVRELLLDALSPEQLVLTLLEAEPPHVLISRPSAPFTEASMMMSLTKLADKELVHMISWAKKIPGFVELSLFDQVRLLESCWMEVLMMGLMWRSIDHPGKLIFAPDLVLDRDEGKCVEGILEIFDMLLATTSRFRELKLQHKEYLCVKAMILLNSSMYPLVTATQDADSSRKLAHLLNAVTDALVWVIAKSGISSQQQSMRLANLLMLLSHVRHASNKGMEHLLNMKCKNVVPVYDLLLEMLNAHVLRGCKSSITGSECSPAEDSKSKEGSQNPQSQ"}
{"Compound": "COc1cc2nc(NC(=O)C3CC3)sc2cc1Oc1ccc(F)c(NC(=O)Cc2cccc(C(F)(F)F)c2)c1", "target": "RIPK1", "test": "KINOMEscan binding Kd", "scale": "relative to: RIPK1 over RIPK3, higher = more RIPK1-selective", "selectivity ratio": "> 36"}
{"Compound": "CC[C@H](C)[C@@H]1NC(=O)[C@H](Cc2ccc(O)cc2)NC(=O)[C@@H](N)CSSC[C@@H](C(=O)N2CCC[C@H]2C(=O)N[C@@H](CC(C)C)C(=O)NCC(N)=O)NC(=O)[C@H](CC(N)=O)NC(=O)[C@H](CCC(N)=O)NC1=O", "target": "oxytocin receptor (Mesocricetus auratus, UniProt A0A1U7Q6Y0)", "test": "competition binding", "system": "hamster brain sections", "scale": "relative to: OTR over V1aR Ki", "selectivity ratio": 116}
{"Compound": "O=C(Cc1cccc(C(F)(F)F)c1)Nc1cc(Oc2c(Br)cc3nc(NC(=O)C4CC4)sc3c2Br)ccc1F", "target": "RIPK1", "test": "KINOMEscan binding Kd", "scale": "relative to: RIPK1 over RIPK3, higher = more RIPK1-selective", "selectivity ratio": "> 19"}
{"Compound": "COc1ccc(C=CC(=O)c2cccc(O)c2)cc1", "target": "Estrogen receptor beta (ESR2, Homo sapiens, UniProt Q92731)", "test": "antagonist, yeast two-hybrid, SRC1", "conditions": "added: estradiol 1 nM", "scale": "relative to: IC50 ERα over IC50 ERβ", "selectivity ratio": 1.31}
{"Compound": "COc1cccc(Cc2cc(CCC(=O)NCCNc3cccc4c(S(=O)(=O)O)cccc34)nn(CC(=O)Nc3ccc(Br)cc3)c2=O)c1", "target": "fMet-Leu-Phe receptor (FPR1, Homo sapiens, UniProt P21462)", "test": "calcium mobilization, antagonist", "system": "HL-60 transfected with FPR1 or FPR2", "scale": "relative to: FPR1 over FPR2", "selectivity ratio": "1000 fold"}
{"Compound": "CC(O)c1c(Oc2ccc(F)c(NC(=O)Cc3cccc(C(F)(F)F)c3)c2)ccc2nc(NC(=O)C3CC3)sc12 (centres unmarked)", "target": "RIPK1", "test": "KINOMEscan binding Kd", "scale": "relative to: RIPK1 over RIPK3, higher = more RIPK1-selective", "selectivity ratio": 6.4}
{"Compound": "CN1CCC=C(c2nsnc2OCCCN2CCN(CCCCC3CCN(CC(=O)N4c5ccccc5NC(=O)c5ccccc54)CC3)CC2)C1", "target": "Muscarinic acetylcholine receptor M3 (CHRM3, Homo sapiens, UniProt P20309)", "test": "radioligand competition binding", "system": "CHO cells", "scale": "relative to: Ki M3 over Ki M2", "selectivity ratio": 180}
{"Compound": "CNC1C[S+]2CC[S+]3CC[S+](C1)[Ru-4]321([N]=C=S)[n]2c3ccc(OC)cc3c3c4c(c5cc(F)c[n+]1c5c32)C(=O)NC4=O (centres unmarked)", "target": "Ribosomal protein S6 kinase beta-2 (RPS6KB2, Homo sapiens, UniProt Q9UBS0)", "test": "enzyme activity, inhibitor, radioactive kinase", "conditions": "added: ATP 100 µM", "scale": "relative to: IC50 RPS6KB2 over IC50 S6K1", "selectivity ratio": "> 100 fold"}
{"Compound": "N[C@@H](CCC(=O)N[C@@H](CS[Se]Cc1ccc(-c2cccc(C(O)c3ccc(Cl)c(Cl)c3)c2)cc1)C(=O)NCC(=O)O)C(=O)O (some centres unmarked)", "target": "Tyrosine-protein phosphatase non-receptor type 1 (PTPN1, Homo sapiens, UniProt P18031)", "scale": "relative to: IC50 PTPN1 over STEP", "selectivity ratio": "> 20 fold"}
{"Compound": "CCOc1cncc(-c2ccc(NC(=O)C(CC)c3ccnc(NS(=O)(=O)C4CC4)n3)nc2)n1 (centres unmarked)", "target": "CTP synthase 1 (Homo sapiens, UniProt P17812)", "test": "enzyme activity", "system": "human", "scale": "relative to: CTPS2 over target IC50", "selectivity ratio": 126}
{"Compound": "COc1cc2c(cc1OC)C1=NCCN1C(NC(=O)c1cccnc1)=N2", "target": "Phosphatidylinositol 4,5-bisphosphate 3-kinase catalytic subunit gamma isoform (PIK3CG, Homo sapiens, UniProt P48736)", "scale": "relative to: IC50 p110β over IC50 p110γ", "selectivity ratio": 28}
{"note": "Excerpt of the above:"}
{"Compound": "CCOc1cncc(-c2ccc(NC(=O)C(CC)c3ccnc(NS(=O)(=O)C4CC4)n3)nc2)n1 (centres unmarked)", "target": "CTP synthase 1 (Homo sapiens, UniProt P17812)", "test": "enzyme activity", "system": "human", "scale": "relative to: CTPS2 over target IC50", "selectivity ratio": 126}
{"Compound": "COc1cc2c(cc1OC)C1=NCCN1C(NC(=O)c1cccnc1)=N2", "target": "Phosphatidylinositol 4,5-bisphosphate 3-kinase catalytic subunit gamma isoform (PIK3CG, Homo sapiens, UniProt P48736)", "scale": "relative to: IC50 p110β over IC50 p110γ", "selectivity ratio": 28}
